Published values from different studies.
A part holds a random share of what one study measured.

Set 1
Target: PABPC1L2, full length, GST fusion (mouse, UniProt A0ABA7IW68)
Method: RNAcompete
Molecule type: RNA
Matrix: in vitro
Concentration: 20 nM
Notes: 7-mer, probes averaged, single round
Relative to: mean of 7-mers
Direction: higher = stronger binding
Construct (chain): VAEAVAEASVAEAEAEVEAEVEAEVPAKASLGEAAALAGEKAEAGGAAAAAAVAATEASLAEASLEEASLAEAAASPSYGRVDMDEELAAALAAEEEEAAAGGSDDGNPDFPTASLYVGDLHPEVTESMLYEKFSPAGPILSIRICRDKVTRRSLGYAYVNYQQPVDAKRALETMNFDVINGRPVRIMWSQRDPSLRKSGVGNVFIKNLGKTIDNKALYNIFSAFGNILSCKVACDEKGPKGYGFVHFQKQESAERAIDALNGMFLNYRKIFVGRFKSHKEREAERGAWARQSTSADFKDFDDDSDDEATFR
| Oligonucleotide | 7-mer Z-score |
| --- | --- |
| UUCCAGC | -0.22 |
| GAUGGGC | 0.0406 |
| CUCCGAC | -0.298 |
| CGGACUA | 0.0225 |

Set 2
Target: Interferon regulatory factor 5, full length, phosphomimetic (IRF5, Homo sapiens, UniProt Q13568-2, residues 1-514, K96S/S451D/S453D/S456D/S462D)
Method: protein-binding microarray
Molecule type: double-stranded DNA, one strand shown
Matrix: in vitro
Concentration: 250 nM
Notes: 60-bp whole probe
Together with: salmon DNA 0.4 mg/ml
Relative to: random background probes
Direction: higher = stronger binding
| Oligonucleotide | log fluorescence [z-score] |
| --- | --- |
| GCCTAGCACGACGGTTTCGGGACTGGGCACGTGCTAGTCTTGATTCGCTTGACGCTGCTG | 4.75 |
| GCCTAGCACTCAGCTCTGCGGTTCAGACTGTGCTAGGTCTTGATTCGCTTGACGCTGCTG | -0.315 |
| GCCTAGCACTCAAGTCTAGCCATTGTGACTGTGCTAGTCTTGATTCGCTTGACGCTGCTG | -0.0649 |

Set 3
Target: Histone acetyltransferase KAT6A, both winged helices, GST fusion (KAT6A, Homo sapiens, UniProt Q92794, residues 1-181)
Method: protein binding microarray
Molecule type: double-stranded DNA, one strand shown
Matrix: in vitro
Concentration: not given
Notes: 8-mer, flanks averaged, mean of 2 arrays, mostly near background
Relative to: not given
Direction: higher = stronger binding
Construct (chain): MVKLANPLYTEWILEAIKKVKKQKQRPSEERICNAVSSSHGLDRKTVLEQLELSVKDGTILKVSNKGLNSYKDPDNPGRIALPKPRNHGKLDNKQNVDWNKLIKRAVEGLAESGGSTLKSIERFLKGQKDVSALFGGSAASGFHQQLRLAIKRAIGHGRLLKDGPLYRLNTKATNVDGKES
| Oligonucleotide | E-score |
| --- | --- |
| GCGATTCC | 0.171 |
| CCATATGA | -0.11 |
| CACGCTAG | 0.0322 |
| CGAGCTAA | -0.0408 |
| ATTCAAAT | -0.0752 |

Further values, each from its own experiment
| Molecule | target | assay | system | conditions | scale | measurement | result |
| --- | --- | --- | --- | --- | --- | --- | --- |
| PhoQ, residues 284 288 289 292 302 303 AAQSYM | PhoP, residues 12 14 15 18 19 TTLRV (Escherichia coli, UniProt P23836) | Sort-seq, measured: YFP reporter | E. coli | PhoQ-PhoP variant library, together with: 10 µM Mg2+ | relative to: high Mg2+ state, higher = stronger signaling | fold induction | 9.45 |

Repeated from above (set 2):
| Oligonucleotide | log fluorescence [z-score] |
| --- | --- |
| GCCTAGCACGACGGTTTCGGGACTGGGCACGTGCTAGTCTTGATTCGCTTGACGCTGCTG | 4.75 |
| GCCTAGCACTCAAGTCTAGCCATTGTGACTGTGCTAGTCTTGATTCGCTTGACGCTGCTG | -0.0649 |
